Experimental data collected from several papers.
Lines come from different studies, so protocols differ.

| SMILES | test | system | setting | endpoint | value |
| --- | --- | --- | --- | --- | --- |
| CCN(CCO)CCCC(C)Nc1ccnc2cc(Cl)ccc12 (centres unmarked) | measured: Ataxia grade 1 | newly diagnosed glioblastoma patients | oral, 200 mg/dose, with radiotherapy and temozolomide | patients with adverse event | 33% |
| COc1c(OCCCN2CCOCC2)ccc2c1N=C(NC(=O)c1cnc(N)nc1)N1CCN=C21 | measured: Hypertension | patients with advanced malignancies | intravenous, dose not given, any grade, all cohorts, together with: gemcitabine | patients with adverse event | 52% |
| N[C@@H]1c2ccccc2OC12CCN(c1cnc3c(N4CCCc5ncccc54)n[nH]c3n1)CC2 | – | advanced solid tumour patients | oral, 20 mg once daily | patients with any TEAE | 100% |
| CC(=O)c1c(C)c2cnc(Nc3ccc(C4CCN(CCS(C)(=O)=O)CC4)cn3)nc2n(C2CCCC2)c1=O | – | HR+/HER2- advanced breast cancer patients | oral, 25 mg | patients with TRAE grade ≥3 | 0% |
| CN1CC[C@@H](c2c(O)cc(O)c3c(=O)cc(-c4ccc(C(F)(F)F)cc4Cl)oc23)[C@@H]1CO | measured: Anorexia | relapsed or refractory haematological malignancies | oral, dose not given, all arms | patients with adverse event | 17.5% |
| O=C1Nc2cc3[nH]nc(-c4ccncc4)c3cc2CN1Cc1ccccc1 | CTCAE v4.03 | advanced solid tumour patients | intravenous, 0.9 mg/kg, schedules 1/2 | patients with headache | 0% |
| Cc1cc(OCCOCCC(F)(F)P(=O)(O)O)ccc1CCc1cnc2c(N)nc3cc(CCC(=O)O)ccc3c2c1 | measured: fatigue | adults with advanced solid tumours | dose not given, all groups pooled, all grades | patients with non-serious AE | 11.1% |
| CO[C@H]1C[C@@H]2CC[C@@H](C)[C@@](O)(O2)C(=O)C(=O)N2CCCC[C@H]2C(=O)O[C@H]([C@H](C)C[C@@H]2CC[C@@H](OC(=O)NCCOCCOCCOCCOCCOCCOCCOCCOCCC(=O)N3CCc4cc(Cn5nc(-c6ccc7oc(N)nc7c6)c6c(N)ncnc65)ccc4C3)[C@H](OC)C2)C[C@@H](O)[C@H](C)/C=C(\C)[C@@H](O)[C@@H](OC)C(=O)[C@H](C)C[C@H](C)/C=C/C=C/C=C/1C | measured: gastric haemorrhage leading to dose reduction | patients with advanced solid tumours | intravenous, dose not given, any grade, all doses | patients with AE | 1.8% |
| Nc1nc2cc(-c3ccc4ncc(C(=O)N5CCOCC5)n4c3)ccc2o1 | measured: Constipation, any cause, grade ≥3 | patients with advanced solid tumours | dose not given | patients with adverse events | 0% |
| C[C@@H]1OC(=O)NN=C1c1ccc(-c2ccc(F)cc2)c(C(F)(F)F)c1 | – | patients, phase I trial | oral, dose not given, all arms, any grade TEAE | patients with abdominal distension | 20% |
| C=CCNc1c(O)cc2c(O)c1C[C@@H](C)C[C@H](OC)[C@H](O)[C@@H](C)/C=C(\C)[C@H](OC(N)=O)[C@@H](OC)/C=C\C=C(/C)C(=O)N2 | – | unresectable or metastatic STS, GIST, other | intravenous, 500 mg/m^2 | patients with fatigue TEAE | 71% |

A few entries again:
| SMILES | test | system | setting | endpoint | value |
| --- | --- | --- | --- | --- | --- |
| CN1CC[C@@H](c2c(O)cc(O)c3c(=O)cc(-c4ccc(C(F)(F)F)cc4Cl)oc23)[C@@H]1CO | measured: Anorexia | relapsed or refractory haematological malignancies | oral, dose not given, all arms | patients with adverse event | 17.5% |
